Results gathered from unrelated publications.
Numbered parts are unrelated; each lists some results of a single study.
Chain of UniProt Q9HC98 (whole entry, looked up): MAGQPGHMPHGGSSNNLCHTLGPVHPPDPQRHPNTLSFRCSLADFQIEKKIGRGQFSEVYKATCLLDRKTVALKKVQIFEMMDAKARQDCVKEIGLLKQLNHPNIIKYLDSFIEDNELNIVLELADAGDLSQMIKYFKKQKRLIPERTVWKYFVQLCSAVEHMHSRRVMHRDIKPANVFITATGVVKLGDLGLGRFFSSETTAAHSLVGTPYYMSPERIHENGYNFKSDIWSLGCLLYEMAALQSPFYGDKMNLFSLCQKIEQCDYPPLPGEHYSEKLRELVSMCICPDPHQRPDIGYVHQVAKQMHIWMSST
Chain of UniProt Q99558 (whole entry, looked up): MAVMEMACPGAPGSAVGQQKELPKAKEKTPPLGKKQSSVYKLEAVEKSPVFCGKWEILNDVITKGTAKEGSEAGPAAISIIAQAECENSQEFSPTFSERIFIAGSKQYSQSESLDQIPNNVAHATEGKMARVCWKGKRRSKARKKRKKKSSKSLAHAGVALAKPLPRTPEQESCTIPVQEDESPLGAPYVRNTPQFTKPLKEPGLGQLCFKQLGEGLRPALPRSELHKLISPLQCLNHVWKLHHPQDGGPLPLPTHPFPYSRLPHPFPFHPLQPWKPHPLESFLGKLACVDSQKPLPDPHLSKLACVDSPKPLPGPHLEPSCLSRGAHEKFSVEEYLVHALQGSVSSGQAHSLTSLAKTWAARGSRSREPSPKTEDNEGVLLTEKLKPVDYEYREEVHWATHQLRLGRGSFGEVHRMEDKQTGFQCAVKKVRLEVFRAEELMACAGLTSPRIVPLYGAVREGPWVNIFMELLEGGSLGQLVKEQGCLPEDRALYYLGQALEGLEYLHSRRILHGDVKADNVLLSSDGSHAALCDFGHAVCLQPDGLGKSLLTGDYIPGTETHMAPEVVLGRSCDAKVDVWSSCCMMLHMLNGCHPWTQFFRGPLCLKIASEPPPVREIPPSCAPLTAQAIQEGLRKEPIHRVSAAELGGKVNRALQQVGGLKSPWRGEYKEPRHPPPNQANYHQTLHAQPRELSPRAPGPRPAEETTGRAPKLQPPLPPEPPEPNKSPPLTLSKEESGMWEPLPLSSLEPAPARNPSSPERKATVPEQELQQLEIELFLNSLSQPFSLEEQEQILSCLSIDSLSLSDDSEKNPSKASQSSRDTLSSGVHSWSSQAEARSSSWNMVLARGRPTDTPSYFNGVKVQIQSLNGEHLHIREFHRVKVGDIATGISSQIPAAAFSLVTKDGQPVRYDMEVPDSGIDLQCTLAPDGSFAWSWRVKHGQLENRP
Chain of UniProt P29320 (whole entry, looked up): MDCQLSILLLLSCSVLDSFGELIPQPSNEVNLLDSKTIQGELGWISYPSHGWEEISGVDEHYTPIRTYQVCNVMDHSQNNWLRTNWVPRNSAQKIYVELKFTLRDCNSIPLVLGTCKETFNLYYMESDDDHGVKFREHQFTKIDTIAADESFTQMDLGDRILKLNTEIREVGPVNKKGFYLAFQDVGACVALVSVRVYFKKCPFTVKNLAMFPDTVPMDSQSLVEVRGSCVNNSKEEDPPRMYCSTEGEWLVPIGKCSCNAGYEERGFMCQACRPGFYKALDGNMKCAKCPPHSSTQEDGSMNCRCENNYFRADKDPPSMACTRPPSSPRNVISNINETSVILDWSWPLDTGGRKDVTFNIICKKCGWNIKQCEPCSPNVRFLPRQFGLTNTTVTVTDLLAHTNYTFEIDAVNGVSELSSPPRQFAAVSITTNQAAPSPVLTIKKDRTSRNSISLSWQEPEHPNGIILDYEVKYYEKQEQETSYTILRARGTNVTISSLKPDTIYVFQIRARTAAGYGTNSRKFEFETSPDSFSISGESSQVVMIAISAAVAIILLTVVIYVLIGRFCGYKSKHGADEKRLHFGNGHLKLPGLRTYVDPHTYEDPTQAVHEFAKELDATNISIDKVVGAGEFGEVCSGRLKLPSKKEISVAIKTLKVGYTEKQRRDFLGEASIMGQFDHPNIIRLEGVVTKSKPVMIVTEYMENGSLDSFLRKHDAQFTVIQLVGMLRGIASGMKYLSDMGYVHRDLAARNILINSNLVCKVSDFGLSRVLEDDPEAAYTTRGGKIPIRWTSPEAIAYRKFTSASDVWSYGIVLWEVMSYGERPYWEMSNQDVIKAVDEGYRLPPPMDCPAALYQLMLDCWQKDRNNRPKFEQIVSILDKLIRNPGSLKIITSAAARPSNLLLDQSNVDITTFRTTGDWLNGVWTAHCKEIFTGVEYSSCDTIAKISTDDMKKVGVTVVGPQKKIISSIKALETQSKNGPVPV
Chain of UniProt Q9Y5S2 (whole entry, looked up): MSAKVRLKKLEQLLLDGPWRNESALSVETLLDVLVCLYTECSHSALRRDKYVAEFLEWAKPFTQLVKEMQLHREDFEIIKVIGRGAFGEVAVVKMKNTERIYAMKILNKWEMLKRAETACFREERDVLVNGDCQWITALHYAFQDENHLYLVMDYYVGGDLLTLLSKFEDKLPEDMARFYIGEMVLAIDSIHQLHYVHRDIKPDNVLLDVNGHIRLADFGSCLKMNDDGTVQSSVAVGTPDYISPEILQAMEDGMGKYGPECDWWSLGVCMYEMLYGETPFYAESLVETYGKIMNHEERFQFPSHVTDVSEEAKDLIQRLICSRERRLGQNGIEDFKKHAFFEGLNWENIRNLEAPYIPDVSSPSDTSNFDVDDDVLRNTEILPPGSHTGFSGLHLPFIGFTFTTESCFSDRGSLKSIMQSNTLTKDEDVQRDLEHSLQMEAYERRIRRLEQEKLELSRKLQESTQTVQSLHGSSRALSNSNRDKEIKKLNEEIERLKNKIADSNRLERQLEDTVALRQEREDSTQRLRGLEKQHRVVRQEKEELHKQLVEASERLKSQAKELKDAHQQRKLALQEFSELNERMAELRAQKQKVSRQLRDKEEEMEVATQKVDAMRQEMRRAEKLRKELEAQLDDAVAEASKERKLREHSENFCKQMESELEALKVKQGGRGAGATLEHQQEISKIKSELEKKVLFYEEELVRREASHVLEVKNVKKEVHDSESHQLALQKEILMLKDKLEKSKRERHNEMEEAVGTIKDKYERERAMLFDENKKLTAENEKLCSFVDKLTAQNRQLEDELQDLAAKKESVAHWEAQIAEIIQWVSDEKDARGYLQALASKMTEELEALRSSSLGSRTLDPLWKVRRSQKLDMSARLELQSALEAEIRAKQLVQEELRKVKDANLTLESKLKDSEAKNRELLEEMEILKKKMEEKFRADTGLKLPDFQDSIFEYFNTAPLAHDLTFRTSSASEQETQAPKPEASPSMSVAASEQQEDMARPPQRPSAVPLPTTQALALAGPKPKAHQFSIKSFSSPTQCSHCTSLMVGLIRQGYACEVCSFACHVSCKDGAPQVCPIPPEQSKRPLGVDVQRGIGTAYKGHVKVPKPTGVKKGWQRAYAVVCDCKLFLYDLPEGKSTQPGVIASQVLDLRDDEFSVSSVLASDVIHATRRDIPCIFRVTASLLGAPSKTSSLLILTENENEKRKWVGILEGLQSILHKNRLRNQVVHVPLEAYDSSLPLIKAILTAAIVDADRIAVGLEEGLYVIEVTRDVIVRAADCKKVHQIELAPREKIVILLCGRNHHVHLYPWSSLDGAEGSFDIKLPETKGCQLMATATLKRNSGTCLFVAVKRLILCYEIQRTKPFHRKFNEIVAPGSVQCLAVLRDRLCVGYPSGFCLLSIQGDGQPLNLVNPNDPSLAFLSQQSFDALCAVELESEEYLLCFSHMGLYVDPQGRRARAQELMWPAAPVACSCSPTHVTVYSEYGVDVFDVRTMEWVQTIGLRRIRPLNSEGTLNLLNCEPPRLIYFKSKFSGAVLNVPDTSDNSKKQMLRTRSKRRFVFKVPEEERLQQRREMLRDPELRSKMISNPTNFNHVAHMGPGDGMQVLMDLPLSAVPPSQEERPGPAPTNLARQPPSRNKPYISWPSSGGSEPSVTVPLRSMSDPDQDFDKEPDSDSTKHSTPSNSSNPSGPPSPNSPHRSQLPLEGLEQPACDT
Chain of UniProt P30291 (whole entry, looked up): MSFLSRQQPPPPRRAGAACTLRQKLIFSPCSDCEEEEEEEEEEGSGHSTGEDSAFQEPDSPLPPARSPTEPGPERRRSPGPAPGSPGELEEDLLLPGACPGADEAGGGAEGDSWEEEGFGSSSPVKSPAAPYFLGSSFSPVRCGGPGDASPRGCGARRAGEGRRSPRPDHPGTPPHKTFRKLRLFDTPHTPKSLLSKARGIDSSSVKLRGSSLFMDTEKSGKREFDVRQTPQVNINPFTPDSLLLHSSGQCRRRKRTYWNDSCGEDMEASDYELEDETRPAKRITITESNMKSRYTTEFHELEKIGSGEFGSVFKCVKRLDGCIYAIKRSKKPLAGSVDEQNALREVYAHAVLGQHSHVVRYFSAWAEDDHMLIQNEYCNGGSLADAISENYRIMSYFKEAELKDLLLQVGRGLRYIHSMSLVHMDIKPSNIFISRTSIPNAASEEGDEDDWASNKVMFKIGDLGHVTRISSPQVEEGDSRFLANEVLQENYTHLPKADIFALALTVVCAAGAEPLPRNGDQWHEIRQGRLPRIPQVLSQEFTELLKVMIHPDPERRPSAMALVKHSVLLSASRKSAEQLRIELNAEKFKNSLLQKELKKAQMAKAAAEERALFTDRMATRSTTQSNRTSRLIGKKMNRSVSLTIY
Chain of UniProt P49137 (whole entry, looked up): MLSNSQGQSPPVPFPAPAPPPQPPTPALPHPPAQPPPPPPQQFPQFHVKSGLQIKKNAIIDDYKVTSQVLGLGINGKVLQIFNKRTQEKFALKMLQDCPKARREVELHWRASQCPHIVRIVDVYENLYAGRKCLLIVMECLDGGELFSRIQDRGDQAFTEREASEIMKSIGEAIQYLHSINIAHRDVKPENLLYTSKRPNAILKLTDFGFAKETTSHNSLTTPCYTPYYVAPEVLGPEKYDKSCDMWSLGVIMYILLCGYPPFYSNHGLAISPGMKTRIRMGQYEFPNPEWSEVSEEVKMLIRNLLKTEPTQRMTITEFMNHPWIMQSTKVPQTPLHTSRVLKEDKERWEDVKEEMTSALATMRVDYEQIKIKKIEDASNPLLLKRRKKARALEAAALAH

Block 1
Host: mouse
Matrix: microsomes or S9
Concentration: 2 µM
Time: 0.5 h
| SMILES | remaining compound |
| --- | --- |
| Cn1cc(-c2cc3n(n2)CCC(=O)N3CCCC(=O)N2CCN(c3ccccn3)CC2)c2ccccc21 | 30.1% |
| N#Cc1ccnc(-n2cnc(Br)n2)c1 | 66% |
| CCC(C)N(CC(=O)N1CCN(c2ccc(-c3ccc(C)cc3)nn2)CC1)C(=O)c1ccccc1F (stereo not drawn) | 0.395% |
| CC(C)(C)OC(=O)N1CCC(c2n[nH]c3nc(S(C)(=O)=O)ncc23)CC1 | 23.6% |
| CC(C)(C)C1CCc2c(sc3ncnc(O)c23)C1 (stereo not drawn) | 64.5% |
| COc1cc(OC)c(OC)cc1/C=N/N=C1\NC(=O)C(CC(=O)O)S1 (stereo not drawn) | 50% |
| O=C(CCCOc1ccc(Cl)cc1Cl)Nc1cccc(-c2nnc(-c3ccco3)o2)c1 | > 99.9% |
| CCCC(=O)CSc1[nH]c(=O)cc(C)c1C#N | > 99% |

Block 2
Compound: CC(C)c1nn(-c2c(Cl)cccc2Cl)c2nc(Cc3ccc(OCCO)cc3)[nH]c(=O)c12
Read-out: enzyme activity
Mode: inhibitor
Concentration: 0.5 µM
Reference: control
| target | remaining activity [%] |
| --- | --- |
| Dual specificity mitogen-activated protein kinase kinase 2 (MAP2K2, Homo sapiens, UniProt P36507) | 98.5 |
| Mitogen-activated protein kinase kinase kinase 14 (MAP3K14, Homo sapiens, UniProt Q99558) | 97.3 |
| Ephrin type-A receptor 3 (EPHA3, Homo sapiens, UniProt P29320) | 86.2 |
| Casein kinase I isoform gamma-3 (CSNK1G3, Homo sapiens, UniProt Q9Y6M4) | 95.7 |
| Tyrosine-protein kinase FRK (FRK, Homo sapiens, UniProt P42685) | 89.6 |
| Serine/threonine-protein kinase Nek6 (NEK6, Homo sapiens, UniProt Q9HC98) | 105 |
| Wee1-like protein kinase (WEE1, Homo sapiens, UniProt P30291) | 109 |
| Mitogen-activated protein kinase 3 (MAPK3, Homo sapiens, UniProt P27361) | 101 |
| Glycogen synthase kinase-3 beta (GSK3B, Homo sapiens, UniProt P49841) | 47.1 |
| Fibroblast growth factor receptor 1 (FGFR1, Homo sapiens, UniProt P11362) | 84.2 |
| Serine/threonine-protein kinase Nek1 (NEK1, Homo sapiens, UniProt Q96PY6) | 90.9 |
| MAP kinase-activated protein kinase 2 (MAPKAPK2, Homo sapiens, UniProt P49137) | 95.4 |
| Rhodopsin kinase GRK7 (GRK7, Homo sapiens, UniProt Q8WTQ7) | 106 |

Block 3
Organism: Sarcocystis neurona
Read-out: parasite growth
Concentration: 10 µM
Time: 96 h
Setting: secondary screen
| SMILES | inhibition [%] |
| --- | --- |
| COc1c2occc2cc2ccc(=O)oc12 | -18.5 |
| CCCC(=O)Nc1ccc(OCC(O)CNC(C)C)c(C(C)=O)c1 (stereo not drawn) | -48 |
| O=c1c(O[C@@H]2O[C@H](CO)[C@H](O)[C@H](O)[C@H]2O)c(-c2ccc(O)c(O)c2)oc2cc(O)cc(O)c12 | -29.7 |
| [H]/N=C(/NC)NCCC[C@H](N)C(=O)O | -26.6 |
| Clc1ccc2c(c1)C(N1CCNCC1)=Nc1ccccc1O2 | -16.8 |
| c1ccc2c(CC3=NCCN3)cccc2c1 | -1.1 |

Block 4
SMILES: COc1ccc2c(O[C@@H]3C[C@H]4C(=O)N[C@]5(C(=O)O)CC5/C=C\CCCCC[C@H](NC(=O)OC5CCCC5)C(=O)N4C3)cc(-c3csc(NC(=O)C(C)C)n3)nc2c1C (stereo partly drawn)
Read-out: cell-free assay
Technique: competition with immobilised ligand
Concentration: 1 µM
| target | remaining binding |
| --- | --- |
| Non-receptor tyrosine-protein kinase TYK2, JH1 (TYK2, Homo sapiens, UniProt P29597) | 100% |
| MAP kinase-interacting serine/threonine-protein kinase 2 (MKNK2, Homo sapiens, UniProt Q9HBH9) | 70% |
| Bone morphogenetic protein receptor type-2 (BMPR2, Homo sapiens, UniProt Q13873) | 84% |
| Serine/threonine-protein kinase MRCK beta (CDC42BPB, Homo sapiens, UniProt Q9Y5S2) | 96% |
| Dual specificity mitogen-activated protein kinase kinase 4 (MAP2K4, Homo sapiens, UniProt P45985) | 100% |
| Mitogen-activated protein kinase kinase kinase 6 (MAP3K6, Homo sapiens, UniProt O95382) | 98% |

Repeated from above (block 3):
| SMILES | inhibition [%] |
| --- | --- |
| CCCC(=O)Nc1ccc(OCC(O)CNC(C)C)c(C(C)=O)c1 (stereo not drawn) | -48 |
| c1ccc2c(CC3=NCCN3)cccc2c1 | -1.1 |
| COc1c2occc2cc2ccc(=O)oc12 | -18.5 |
| O=c1c(O[C@@H]2O[C@H](CO)[C@H](O)[C@H](O)[C@H]2O)c(-c2ccc(O)c(O)c2)oc2cc(O)cc(O)c12 | -29.7 |
| [H]/N=C(/NC)NCCC[C@H](N)C(=O)O | -26.6 |
